Published values from different studies.
Each line is one published result; not all experiments were run side by side.
Target: Microtubule-associated serine/threonine-protein kinase 1 (MAST1, Homo sapiens, UniProt Q9Y2H9)

Cc1ccc(-c2c(/C=C(\C#N)C(=O)NC(C)C)n(CCCO)c3ncnc(N)c23)cc1  remaining binding (cell-free assay, competition with immobilised ligand; 1 µM): 87%
CC(C)=CC1OC(C)(C)C2C=C3C(=O)C(Cl)=CC(O)C3C3C(O)C4OC4C(=O)C132 (centres unmarked)  remaining binding (cell-free assay, competition with immobilised ligand; 10 µM): 85%
Nc1ncc2c(n1)-c1c([nH]c3ccc(C4=CCOCC4)cc13)CCC2  remaining binding (binding, competition with immobilised ligand; 1 µM): 100%
COc1c(Cl)cccc1Nc1c(-c2ccncc2C#C[C@@]2(C)CCCN2C(=O)/C=C/CN(C)C)[nH]c2c1C(=O)NCC2  remaining binding (binding, competition with immobilised ligand; 3 µM): 29%
CNC(=O)C1CCN(c2cc(C)c(F)cc2NC(=O)c2ccc(-c3cc(O)ccc3C)c(C)c2)CC1  remaining binding (binding, competition with immobilised ligand; 1 µM): 95%
Cc1cnc2nc1Nc1cccc(c1)COC/C=C/COCc1cc(ccc1OCCN1CCOCC1)N2  remaining binding (binding; 0.1 µM): 98%
COc1cc(Nc2nccc(-c3cnn4nc(OC)ccc34)n2)cc(C(F)(F)F)c1  remaining binding (binding, competition with immobilised ligand; 1 µM): 93%
CNC1C[S+]2CC[S+]3CC[S+](C1)[Ru-4]321([N]=C=S)[n]2c3ccc(OC)cc3c3c4c(c5cc(F)c[n+]1c5c32)C(=O)NC4=O (centres unmarked)  remaining binding (KinomeScan; 0.1 µM; relative to: untreated): 77%
C=CC(=O)N1CCc2ccc(-n3c(=O)ccc4cnc5ccc(-c6cnn(C)c6)cc5c43)cc21  remaining binding (KINOMEscan; 1 µM; relative to: DMSO control): 100%
C=CC(=O)N1CCCC(n2c(=O)c3ncccc3n(Cc3ccc(Oc4ccccc4)cc3)c2=O)C1 (centres unmarked)  remaining binding (cell-free assay, competition with immobilised ligand; 1 µM): 94%
CCN1CCN(Cc2ccc(C(=O)Nc3ccc(C)c(NCc4cnc5[nH]ccc5c4OC)c3)cc2C(F)(F)F)CC1  remaining binding (binding, competition with immobilised ligand; 1 µM): 34%

Repeated from above:
COc1c(Cl)cccc1Nc1c(-c2ccncc2C#C[C@@]2(C)CCCN2C(=O)/C=C/CN(C)C)[nH]c2c1C(=O)NCC2  remaining binding (binding, competition with immobilised ligand; 3 µM): 29%
